Measured values from different studies.
A part holds a random share of what one study measured.

Block 1
Target: RING finger protein unkempt homolog, zinc fingers 1-6, GST-SBP tag (UNK, Homo sapiens, UniProt Q9C0B0, residues 30-357)
Chain of UniProt Q9C0B0 (30-357, looked up): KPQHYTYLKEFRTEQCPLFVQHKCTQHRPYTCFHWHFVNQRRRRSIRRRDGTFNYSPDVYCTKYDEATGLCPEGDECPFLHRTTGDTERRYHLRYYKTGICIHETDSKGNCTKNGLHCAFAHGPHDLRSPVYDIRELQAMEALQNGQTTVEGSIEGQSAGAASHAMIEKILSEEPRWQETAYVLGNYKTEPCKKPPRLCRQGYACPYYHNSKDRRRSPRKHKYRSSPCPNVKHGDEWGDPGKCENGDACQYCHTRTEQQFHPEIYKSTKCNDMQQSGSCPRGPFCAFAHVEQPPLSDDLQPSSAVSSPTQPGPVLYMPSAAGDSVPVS
Technique: RNA Bind-n-Seq
Form: RNA
Medium: in vitro
Tested at: not given
Setting: RNA with constant flanks, ends assumed
Relative to: input RNA pool
Direction: higher = stronger binding
Quantity: bound/input enrichment
Constant ends, left off below: GGGAGUUCUACAGUCCGACGAUC … CAACAGAGGAUUGAGCAUCA
GAAAUGGUUCCAGAAAAACGAGCCUCAGCUGGCGAAUGCCUUCGGCAUCCUUGGUUGAAUUCUCCGCAAAUUCUACCAAUAUUGCAUUCUGAGCUAGCAAAUGUUCCCAGUACAUUGGAC: 0.164 ratio
UCAUUGCCCUCAACAUGAAGACUGCCAUAUUCCAAGUCACAUCAUUUUACCAAUGGAGUUACCGAAUUAACAGUAUUUUCAAUUACGUUUAUAACACUGCAGAGACCUUAAGUGCUAAAC: 0.128 ratio
AAGCACUUUCAACAGGCAAAAAUGAUAUUGGAAAAUAUUCCUAACCCGGACCAUGAGGUUAACCGAAUUUUAAAGGUUGCCAAACCCAACUUUGUGGUUAUGAAGUUAUUGGCAGGAGGA: 0.388 ratio
CCUCCCCAUUACCCCUAAAGUAGAACAUUUUUUAAAUUGUGUUGCCACCACUUCUAAAAAUUCCGCAAUAUUAGAAUAGGAUACUAGUGAAGUAAGAAAUUUUGCUUGUUGUUUUGCAAA: 310 ratio
AAAGAGAAACUAAAGCAACUAAUAGAGAAGAGGAUUGGCAAAGAGAAUUUCAUAGAGAAACCCGGAUUUAUUAGCAAACAUGAGUUAUAUUCCAGAGCGUCUCAGAAACCCCAGCCAAAC: 0.96 ratio
GACCCAACUCCAACAAUGAGAGAUGUGAACAAAAAAUUUUCAGUAAGGUACUUUUUGAAUUCCGUGCUUGUUGAUGAGGAAGACCGGAGGUACUUCAAACAGCAGGAGAUAAUUUUAUGG: 0.252 ratio
UUCAUGGAAAUGAGUGUUGAGCAGGAAAUUCUGGUGACUGGUAUCAAGGUUGUCGAUCUGCCCGCUCCCUAUGCCAAGGGUGGCAAAAUUGGGCUUUUUGGUGGUGCUGGAGUUGGCAAG: 0.386 ratio

Block 2
Target: Interferon regulatory factor 5, full length, phosphomimetic (IRF5, Homo sapiens, UniProt Q13568-2, residues 1-514, S451D/S453D/S456D/S462D)
Technique: protein-binding microarray
Form: double-stranded DNA, one strand shown
Medium: in vitro
Tested at: 940 nM top
Setting: 60-bp whole probe
Added: salmon DNA 0.4 mg/ml
Relative to: random background probes
Direction: higher = stronger binding
Quantity: fitted relative affinity
Constant ends, left off below: GCCTAGCAC … GTCTTGATTCGCTTGACGCTGCTG
TTAGGTCTCCTGATCCTTTAGTGCTAG: -0.269 z-score
TCACATACTGATTTCCAACTGTGCTAG: 0.723 z-score
ATCTCTTTCCTTACTTCCCAGTGCTAG: 2.59 z-score
TTAGGTAACGACACTGGGTTAGTGCTA: -0.0765 z-score
TTAGATCTCAGTTTCGATTGGTGCTAG: 7.44 z-score
TTAGGACCGGGGTATCGGTTAGTGCTA: 2.77 z-score
CCATTTTGTGTTTTCATTTTGTGCTAG: 1.41 z-score
TTAGGACTGCTTATCCTTTTGTGCTAG: -0.106 z-score
TCATTTTCCTATGTCATACTGTGCTAG: 1.22 z-score

Block 3
Target: Histone acetyltransferase KAT6A, winged helix 1, GST fusion (KAT6A, Homo sapiens, UniProt Q92794, residues 1-85)
Technique: protein binding microarray
Form: double-stranded DNA, one strand shown
Medium: in vitro
Tested at: not given
Setting: 8-mer, flanks averaged, mean of 2 arrays, mostly near background
Relative to: not given
Direction: higher = stronger binding
Quantity: E-score
Target sequence (chain): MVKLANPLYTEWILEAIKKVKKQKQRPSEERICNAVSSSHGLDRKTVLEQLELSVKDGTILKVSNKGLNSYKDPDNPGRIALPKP
ACGCCAGC: 0.0489
CGTAAATA: 0.11
GCGGAGCC: 0.284
ATACTATA: -0.00126
CATATAAA: 0.0235
GAGTGACA: -0.121
CTAACTCA: -0.229
CAAGGGTA: -0.205

Further values, each from its own experiment
PhoQ, residues 284 288 289 292 302 303 SLSLLA  fold induction (PhoP, residues 12 14 15 18 19 NHFIF (Escherichia coli, UniProt P23836); Sort-seq, measured: YFP reporter; E. coli; PhoQ-PhoP variant library, added: 10 µM Mg2+; relative to: high Mg2+ state, higher = stronger signaling): 1.35

For quick reference, copied from above (block 3):
CATATAAA: 0.0235
CAAGGGTA: -0.205
ACGCCAGC: 0.0489
GCGGAGCC: 0.284
